{"data": "Published values gathered from unrelated publications", "method": "steady-state kinetics", "B1": "enzyme (Escherichia coli, UniProt P0AGF6); chain MHITYDLPVAIDDIIEAKQRLAGRIYKTGMPRSNYFSERCKGEIFLKFENMQRTGSFKIRGAFNKLSSLTDAEKRKGVVACSAGNHAQGVSLSCAMLGIDGKVVMPKGAPKSKVAATCDYSAEVVLHGDNFNDTIAKVSEIVEMEGRIFIPPYDDPKVIAGQGTIGLEIMEDLYDVDNVIVPIGGGGLIAGIAVAIKSINPTIRVIGVQSENVHGMAASFHSGEITTHRTTGTLADGCDVSRPGNLTYEIVRELVDDIVLVSEDEIRNSMIALIQRNKVVTEGAGALACAALLSGKLDQYIQNRKTVSIISGGNIDLSRVSQITGFVDA", "B2": "enzyme H130Y (Salinispora arenicola, UniProt A8M783); chain MASTPWISFTTDYGLADGFVAACHGVLARLAPTARVIDVTHLVPPGDVRRGAAVLAQTVPYLPAAVHVAVVDPGVGTARRAIALTAGNGLLVGPDNGLLLDAATALGGVDAAVELTNPDWLGARMSATFYGRDVFAPVAARLALGAPLADAGPAVEPGALVRLPTPLVQPETDGFTAEVLTVDHFGNVQLAATGALLESLPRSLRVAHRPAVHARTFDDAPPGGLLVHVDSAGLVAVAVNGGRAADLLAVTPGDQLRVTAG", "B3": "SCO6712 V290N (Streptomyces coelicolor, UniProt Q9XAL8); chain AKGITARTAPAGGEVRHLKMYAEKLADGQMGYGFEKGKASVPGPLIEVNEGDTLHIEFTNTMDVRASLHVHGLDYEISSDGTAMNKSDVEPGGTRTYTWRTHKPGRRDDGTWRPGSAGYWHYHDHVVGTEHGTGGIRNGLYGPVIVRRKGDVLPDATHTIVFNDMTINNRKPHTGPDFEATVGDRVEIVMITHGEYYHTFHMHGHRWADNRTGILTGPDDPSRVIDNKITGPADSFGFQIIAGEGVGAGAWMYHCHNQSHSDMGMVGLFLVKKPDGTIPGYEPHEHGGATAKSGESGEPTGGAAAHEHEH", "B4": "PYCR2 R119C (Homo sapiens, UniProt Q96C36); chain MSVGFIGAGQLAYALARGFTAAGILSAHKIIASSPEMNLPTVSALRKMGVNLTRSNKETVKHSDVLFLAVKPHIIPFILDEIGADVQARHIVVSCAAGVTISSVEKKLMAFQPAPKVICCMTNTPVVVQEGATVYATGTHALVEDGQLLEQLMSSVGFCTEVEEDLIDAVTGLSGSGPAYAFMALDALADGGVKMGLPRRLAIQLGAQALLGAAKMLLDSEQHPCQLKDNVCSPGGATIHALHFLESGGFRSLLINAVEASCIRTRELQSMADQEKISPAALKKTLLDRVKLESPTVSTLTPSSPGKLLTRSLALGGKKD", "B5": "enzyme (Burkholderia cenocepacia, UniProt B4E589); chain MTGYDRQSISDTTAKILLEVQAVHFNAEKPFIFTSGWASPVYIDCRKLISYPRVRRALMEMAETTITRDIGFEQIDAVAGGETAGIPFAAWIADRMMVPMQYVRKKPKGFGRNAQIEGHLEEGSRVLLVEDLTTDSRSKINFVNALRTAGATVNHCFVLFHYNIFKESVSVLKDIDVDLHALATWWDVLRVAKASGYFETKTLDEVEKFLHAPAEWSAAHGGATAPKE", "B6": "NUDT3 (Homo sapiens, UniProt O95989); chain MMKLKSNQTRTYDGDGYKKRAACLCFRSESEEEVLLVSSSRHPDRWIVPGGGMEPEEEPSVAAVREVCEEAGVKGTLGRLVGIFENQERKHRTYVYVLIVTEVLEDWEDSVNIGRKREWFKIEDAIKVLQYHKPVQASYFETLRQGYSANNGTPVVATTYSVSAQSSMSGIR", "B7": "enzyme C93G/Y157F (Mus musculus, UniProt P60334); chain MERTELLKPRTLADLIRILHELFAGDEVNVEEVQAVLEAYESNPAEWALYAKFDQYRYTRNLVDQGNGKFNLMILCWGEGHGSSIHDHTDSHGFLKLLQGNLKETLFDWPDKKSNEMIKKSERTLRENQCAYINDSIGLHRVENVSHTEPAVSLHLFSPPFDTCHAFDQRTGHKNKVTMTFHSKFGIRTPFTTSGSLENN", "B8": "enzyme F197V/V84L (Vanderwaltozyma polyspora, UniProt A7TM80); chain MSVLISGASGYIAKHIVRVLLEQNYKVIGTVRSQDKADKLLKQYNNPNLSYEIVPEIANLDAFDDIFKKHGKEIKYVIHAASPLNFGAKDLEKDLVIPAINGTKNMFEAIKKYAPDTVERVVMTASYASIMTPHRQNDPTLTLDEETWNPVTEENAYENVFTAYCASKTFAEKEAWKFVKENSDAVKFKLTTIHPSVVFGPQNFDEDVTKKLNETCEIINGLLHAPFDTKVEKTHFSQFIDVRDVAKTHVLGFQKDELINQRLLLCNGAFSQQDIVNVFNEDFPELKGQFPPEDKDTDLNKGVTGCKIDNEKTKKLLAFEFTPFHKTIHDTVYQILHKEGRV", "B9": "enzyme (Methylibium petroleiphilum, UniProt A2SI32); chain PFAQIYLIEGRTEEQKRAVIEKVTQAMMEAVGAPKENVRVWIHDVPKENWGIGGVSAKALGR", "B10": "enzyme (Thermotoga maritima, UniProt Q9WXS3); chain MRLNRETIKDRAAWEKIGVRPPYFDLDEVEKNTKEQPKWVHFGGGNIFRGFVAAVLQNLLEEGKEDTGINVIELFDYEVIDKVYKPYDNLSIAVTIKPDGDFEKRIIASVMEALKGDPSHPDWERAKEIFRNPSLQLASLTITEKGYNIEDQAGNLFPQVMEDMKNGPVSPQTSMGKVAALLYERFKAGRLPIALLSLDNFSRNGEKLYSSVKRISEEWVKSGLVEKDFIDYLEKDVAFPWSMIDKIVPGPSEFIKEHLEKLGIEGMEIFVTSKRTHIAPFVNMEWAQYLVIEDSFPNGRPKLEGADRNVFLTDRETVEKAERMKVTTCLNPLHTALAIFGCLLGYKKIADEMKDPLLKKLVEGVGEEGIKVVVDPGIINPREFLNEVINIRLPNPYLPDTPQRIATDTSQKMPIRFGETIKAYHERPDLDPRNLKYIPLVIAGWCRYLMGIDDEGREMQLSPDPLLENLRSYVSKIKFGDPESTDDHLKPILSSQQLFRVNLYEVGLGEKIEELFKKMITGPRAVRKTLEEVVGREDG", "note": "Numbers after ± are the reported error.", "sequence of UniProt P49419 (whole entry, looked up)": "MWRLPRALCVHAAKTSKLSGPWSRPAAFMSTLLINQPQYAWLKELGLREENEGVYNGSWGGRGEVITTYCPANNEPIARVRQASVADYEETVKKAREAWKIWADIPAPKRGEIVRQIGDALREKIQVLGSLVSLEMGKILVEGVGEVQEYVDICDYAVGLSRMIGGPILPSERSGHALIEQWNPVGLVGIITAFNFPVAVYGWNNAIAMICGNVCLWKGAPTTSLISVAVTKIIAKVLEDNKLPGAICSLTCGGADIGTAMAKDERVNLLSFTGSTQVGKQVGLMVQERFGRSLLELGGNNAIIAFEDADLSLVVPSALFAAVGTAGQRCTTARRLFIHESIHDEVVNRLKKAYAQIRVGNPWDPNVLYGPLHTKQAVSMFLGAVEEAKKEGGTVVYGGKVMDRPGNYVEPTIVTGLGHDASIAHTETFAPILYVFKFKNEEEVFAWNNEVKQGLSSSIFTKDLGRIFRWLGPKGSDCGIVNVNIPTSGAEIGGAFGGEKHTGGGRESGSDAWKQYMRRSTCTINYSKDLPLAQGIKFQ", "sequence of UniProt P78804 (whole entry, looked up)": "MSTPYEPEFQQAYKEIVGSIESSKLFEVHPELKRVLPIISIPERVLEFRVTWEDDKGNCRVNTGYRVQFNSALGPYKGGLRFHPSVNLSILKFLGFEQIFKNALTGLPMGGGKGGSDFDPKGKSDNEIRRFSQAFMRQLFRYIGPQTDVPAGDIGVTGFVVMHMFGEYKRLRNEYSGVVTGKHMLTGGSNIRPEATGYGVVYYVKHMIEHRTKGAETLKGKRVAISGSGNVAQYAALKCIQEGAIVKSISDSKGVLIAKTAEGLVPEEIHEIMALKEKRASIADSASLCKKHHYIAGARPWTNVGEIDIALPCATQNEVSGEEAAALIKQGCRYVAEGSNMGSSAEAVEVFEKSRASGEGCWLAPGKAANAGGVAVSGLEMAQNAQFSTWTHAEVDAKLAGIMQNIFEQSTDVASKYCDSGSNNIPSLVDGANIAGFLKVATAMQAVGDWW"}
{"Molecule": "enzyme (Sargassum horneri, UniProt A0A097IUG6)", "substrate": "Nc1ncnc2c1ncn2[C@@H]1O[C@H](COP(=O)(O)OP(=O)(O)O)[C@@H](O)[C@H]1O", "pH": "pH 6.5", "temperature": "25 °C", "added": "16 mM PEP", "kcat": "39.5 ± 0.6 s⁻¹"}
{"Molecule": "B1 (enzyme)", "substrate": "C[C@@H](O)[C@H](N)C(=O)O", "pH": "pH 7.5", "temperature": "23 °C", "notes": "apparent, not purified", "added": "PLP 0.1 mM, L-Thr", "kcat": "2.04 s⁻¹"}
{"Molecule": "B2 (enzyme H130Y)", "substrate": "C[S+](CC[C@H](N)C(=O)O)C[C@H]1O[C@@H](n2cnc3c(N)ncnc32)[C@H](O)[C@@H]1O", "pH": "pH 7.9", "temperature": "37 °C", "notes": "apparent", "added": "1-200 µM SAM", "kcat": "0.000667 ± 0.000133 s⁻¹"}
{"Molecule": "B3 (SCO6712 V290N)", "substrate": "CCn1c(=NN=c2sc3cc(S(=O)(=O)O)ccc3n2CC)sc2cc(S(=O)(=O)O)ccc21", "pH": "pH 7", "temperature": "37 °C", "notes": "NaCl 150 mM", "added": "O2 cosubstrate", "kcat": "1.16 ± 0.02 s⁻¹"}
{"Molecule": "gdh N192L (Bacillus subtilis)", "substrate": "NC(=O)c1ccc[n+]([C@@H]2O[C@H](COP(=O)(O)OP(=O)(O)OC[C@H]3O[C@@H](n4cnc5c(N)ncnc54)[C@H](O)[C@@H]3O)[C@@H](O)[C@H]2O)c1", "pH": "pH 7", "temperature": "40 °C", "kcat": "18.9 ± 0.851 s⁻¹"}
{"Molecule": "B4 (PYCR2 R119C)", "substrate": "NC(=O)C1=CN([C@@H]2O[C@H](COP(=O)(O)OP(=O)(O)OC[C@H]3O[C@@H](n4cnc5c(N)ncnc54)[C@H](O)[C@@H]3O)[C@@H](O)[C@H]2O)C=CC1", "pH": "pH 7.5", "temperature": "37 °C", "notes": "apparent, cofactor varied", "added": "DL-P5C 5000 µM", "kcat": "0.015 ± 0.001 s⁻¹"}
{"Molecule": "enzyme (Schizosaccharomyces pombe, UniProt P78804)", "substrate": "NC(=O)c1ccc[n+]([C@@H]2O[C@H](COP(=O)(O)OP(=O)(O)OC[C@H]3O[C@@H](n4cnc5c(N)ncnc54)[C@H](OP(=O)(O)O)[C@@H]3O)[C@@H](O)[C@H]2O)c1", "pH": "pH 7", "temperature": "30 °C", "notes": "apparent", "kcat": "13 ± 0.3 s⁻¹"}
{"Molecule": "B5 (enzyme)", "substrate": "O=P(O)(O)OC[C@H]1O[C@H](OP(=O)(O)OP(=O)(O)O)[C@H](O)[C@@H]1O", "pH": "pH 7", "temperature": "room temperature", "added": "orotate 1 mM", "kcat": "0.017 ± 0.005 s⁻¹"}
{"Molecule": "B6 (NUDT3)", "substrate": "Nc1ncnc2c1ncn2[C@@H]1O[C@H](COP(=O)(O)OP(=O)(O)OP(=O)(O)OP(=O)(O)OP(=O)(O)OC[C@H]2O[C@@H](n3cnc4c(N)ncnc43)[C@H](O)[C@@H]2O)[C@@H](O)[C@H]1O", "added": "Mg2+", "kcat": "0.0004 ± 0.00032 s⁻¹"}
{"Molecule": "B7 (enzyme C93G/Y157F)", "substrate": "N[C@@H](CS)C(=O)O", "pH": "pH 7.5", "temperature": "37 °C", "kcat": "> 0.88 s⁻¹"}
{"Molecule": "enzyme (Plasmodium falciparum, UniProt C0H484)", "substrate": "Nc1nc2c(ncn2[C@@H]2O[C@H](COP(=O)(O)OP(=O)(O)OP(=O)(O)O)[C@@H](O)[C@H]2O)c(=O)[nH]1", "added": "Mn2+", "kcat": "0.31 ± 0.01 s⁻¹"}
{"Molecule": "ALDH7A1 (Homo sapiens, UniProt P49419)", "substrate": "N[C@@H](CCCC=O)C(=O)O", "pH": "pH 8", "notes": "apparent", "added": "NAD+ 2.5 mM", "kcat": "0.27 ± 0.02 s⁻¹"}
{"Molecule": "B8 (enzyme F197V/V84L)", "substrate": "CCO", "pH": "pH 8", "temperature": "30 °C", "added": "NADP+", "kcat": "0.095 s⁻¹"}
{"Molecule": "enzyme (Acinetobacter baumannii, UniProt A0A5P1UDB1)", "substrate": "O=C(O)c1ccc(F)cc1O", "pH": "pH 7.5", "temperature": "37 °C", "notes": "apparent", "kcat": "0.0118 ± 0.0007 s⁻¹"}
{"Molecule": "HNL E79H/H103V/K236M/N104A/T11G (Hevea brasiliensis)", "substrate": "CC(=O)Oc1ccc([N+](=O)[O-])cc1", "pH": "pH 7.2", "temperature": "22 °C", "kcat": "0.0633 ± 0.00333 s⁻¹"}
{"Molecule": "enzyme (Bacteroides fragilis, UniProt Q5LAD6)", "substrate": "C[C@@H]1O[C@@H](Oc2ccc([N+](=O)[O-])cc2Cl)[C@@H](O)[C@H](O)[C@@H]1O", "pH": "pH 8.4", "temperature": "40 °C", "kcat": "134 s⁻¹"}
{"Molecule": "enzyme Y41F (Homo sapiens, UniProt Q08623)", "substrate": "O=c1[nH]cc([C@@H]2O[C@H](COP(=O)(O)O)[C@@H](O)[C@H]2O)c(=O)[nH]1", "pH": "pH 7", "temperature": "25 °C", "kcat": "1.62 s⁻¹"}
{"Molecule": "enzyme (Pseudanabaena biceps, UniProt L8N0N6)", "substrate": "NC(=O)c1ccc[n+]([C@@H]2O[C@H](COP(=O)(O)OP(=O)(O)OC[C@H]3O[C@@H](n4cnc5c(N)ncnc54)[C@H](O)[C@@H]3O)[C@@H](O)[C@H]2O)c1", "pH": "pH 7.4", "temperature": "30 °C", "notes": "apparent, cofactor varied", "kcat": "6.32 ± 0.6 s⁻¹"}
{"Molecule": "enzyme (Streptomyces avermitilis, UniProt Q82IV1)", "substrate": "CC(C)=CCC/C(C)=C/CC/C(C)=C/CO[P@@](=O)(O)OP(=O)(O)O", "pH": "pH 7", "temperature": "30 °C", "notes": "refolded from inclusion bodies", "added": "Mg2+", "kcat": "2.58e-05 ± 6e-07 s⁻¹"}
{"Molecule": "B9 (enzyme)", "substrate": "O=C(O)/C=C/C=C(\\O)C(=O)O", "pH": "pH 7.3", "temperature": "24 °C", "kcat": "4600 ± 200 s⁻¹"}
{"Molecule": "B10 (enzyme)", "substrate": "O=C(O)[C@@H](O)[C@@H](O)[C@H](O)[C@H](O)CO", "pH": "pH 8.5", "added": "NAD", "kcat": "4.2 ± 0.1 s⁻¹"}
{"note": "Some of these lines once more:"}
{"Molecule": "enzyme (Plasmodium falciparum, UniProt C0H484)", "substrate": "Nc1nc2c(ncn2[C@@H]2O[C@H](COP(=O)(O)OP(=O)(O)OP(=O)(O)O)[C@@H](O)[C@H]2O)c(=O)[nH]1", "added": "Mn2+", "kcat": "0.31 ± 0.01 s⁻¹"}
